Measured values of several laboratories.
Each line is one published result; not all experiments were run side by side.

SMILES | test | test system | conditions | endpoint | value
C[C@@H](Nc1cc(F)cc(F)c1)c1cc(C(=O)N(C)C)cc2c(=O)cc(N3CCOCC3)oc12 | item: Diarrhea | advanced solid tumour patients | oral, dose not given, dose finding | patients discontinuing for AE | 3.2%
O=C(Nc1nc2cccc(-c3ccc(CN4CCS(=O)(=O)CC4)cc3)n2n1)C1CC1 | – | rheumatoid arthritis patients | oral, 150 mg once daily, 4 weeks, TEAE regardless of relatedness | patients with upper abdominal pain | 0%
NC(=O)N1c2ccccc2C=Cc2ccccc21 | – | male patients | oral, dose not given, on-treatment adverse events | patients with feces hard | 7%
CCOc1c([C@H](C)n2nc(C)c3c(N)ncnc32)cc(Cl)c(F)c1[C@@H]1CNC(=O)C1 | item: PR > 220 ms | previously treated B-cell malignancy | oral, dose not given, all doses | patients with high heart rate | 7.7%
CNC(=O)c1ccc(-c2cnc3ncc(Cc4ccc5ncccc5c4)n3n2)cc1F | item: Constipation | other cancer patients | oral, 600 mg twice daily, expansion cohort, grade 3-4 | patients with adverse event | 0%
C[C@@H](c1ccc2nccn2c1)n1nnc2ncc(-c3cnn(C)c3)nc21 | item: treatment-related grade ≥3 Dyspnea | EGFR-mutant MET-altered NSCLC | oral, dose not given, all | patients with adverse events | 1%
COc1cc(Nc2ncc3c(n2)-c2ccc(Cl)cc2C(c2c(F)cccc2OC)=NC3)ccc1C(=O)O | item: increased ALT, all grades | cancer patients, phase 1/2 | oral, dose not given, together with: pembrolizumab | patients with adverse event | 25%
COc1ccc([C@@H](O)c2cc(-c3ncnc4cc(N5CCOCC5)ccc34)c(F)cc2Cl)nn1 | item: Lymphopenia | locally advanced rectal cancer patients | dose not given, all dose groups, together with: capecitabine plus radiotherapy | patients with TEAE | 21%
FC(F)(F)c1ccc(CNc2ccc(Cc3c[nH]c4ncc(Cl)cc34)cn2)cn1 | item: blood alkaline phosphatase increased | non-TGCT solid tumour patients | oral, 1000 mg/day, all grades | patients with treatment-related adverse event | 2%
CNC(=O)c1cc(Oc2ccc(NC(=O)Nc3cc(C(C)(C)C)nn3-c3ccc4ncccc4c3)c(F)c2)ccn1 | – | patients | oral, dose not given, cycles 1 and 2, High AUC subgroup | patients with visual abnormalities | 22%
Cc1cc(-c2nnc(N)nc2-c2ccc(F)cc2)cc(Cl)n1 | item: Myositis | IO-naive mCRPC patients, male | oral, dose not given, treatment-related, grade ≥3 | patients with immune-mediated AE | 0%
COc1cc2nccc(Oc3ccc(NC(=O)c4cc5c(n(-c6ccccc6)c4=O)CCCC5=O)nc3)c2cc1OC | CTCAE | patients with relapsed/refractory AML | oral, 6 mg once daily | patients, with TEAEs, drug-related grade ≥3 | 0%
Cc1cc(NC2CCN(C(=O)OC3CCN(C(=O)/C=C/CN(C)C)C3)CC2)n2ncc(C(C)C)c2n1 (stereo not shown) | – | patients with advanced solid tumours | dose not given, QD arm, grade 3 or higher | patients with Hypotension | 2%

Some of these lines once more:
SMILES | test | test system | conditions | endpoint | value
C[C@@H](Nc1cc(F)cc(F)c1)c1cc(C(=O)N(C)C)cc2c(=O)cc(N3CCOCC3)oc12 | item: Diarrhea | advanced solid tumour patients | oral, dose not given, dose finding | patients discontinuing for AE | 3.2%
